Published values of several laboratories.
± marks the error that the study gave.
Organism: Salmonella typhimurium

The survival of `O=[N+]([O-])c1ccc(NC2CCNCC2)c(C(F)(F)F)c1` is reported as 128% (SOS/umu test; TA1535/pSK1002; 0.001 mg/mL, 4 h, without S9 activation).
`CN(CC(C)(C)C)N=O` — result for “revertant colonies per plate”: 25.7 ± 7 (mutagenicity, Ames plate incorporation; TA1535; 1500 µg/plate, without S9, methanol).
`O=[N+]([O-])c1ccc(N2CCN(CCC(O)c3ccc(F)cc3)CC2)c(C(F)(F)F)c1` (stereo not drawn) gave an induction factor of 1 (genotoxicity, SOS/umu test; TA1535/pSK1002; 0.031 mg/mL, 4 h, without S9, full range).
Under “fold increase in revertants”, `CC(=O)N1CCC(C(=O)N2CCN3C(=O)c4cc(-c5ccccc5)ccc4NC(=O)C3C2)CC1` (stereo not drawn) is recorded as 1 (TA98; 5000 µg/plate; reference: vehicle).
For `CC(C)N(N=O)C(C)C`, “revertant colonies per plate” read 39 ± 8 (mutagenicity, Ames plate incorporation; TA98; 500 µg/plate, without S9, methanol).
`COc1cccc(-c2n[nH]c(SCc3ccccn3)n2)c1OC` — result for “revertant colonies per plate”: 8 (Ames test, plate incorporation; TA1537; 0.016 mg/plate, without S9).
With `N#C[C@@]1(n2ccc(N)nc2=O)O[C@H](CO)[C@@H](O)[C@H]1O` the viability was 104 (TA100; 5 µM, without S9, unit not given; reference: control).
The survival of `O=[N+]([O-])c1ccc(N2CCC(NCCC(O)c3ccc(F)c4ccccc34)CC2)c(C(F)(F)F)c1` (stereo not drawn) is reported as 102% (SOS/umu test; TA1535/pSK1002; 0.002 mg/mL, 4 h, without S9, lower range).
`COCCN(CCOC)N=O`: “revertant colonies per plate” 28 ± 6 (mutagenicity, Ames plate incorporation; TA98; 50 µg/plate, 3 d, without S9, methanol).
Under “umu induction factor”, `OC(CCN1CC=C(c2ccc(F)cc2)CC1)c1ccc(F)c2ccccc12` (stereo not drawn) is recorded as 0.9 (SOS response, SOS/umu test; TA1535/pSK1002; 0.001 mg/mL, 4 h, without S9 activation).
`CNC(=O)c1c(N(C)N=O)ncn1C` — result for “revertant colonies per plate”: 10.7 ± 5 (mutagenicity, Ames plate incorporation; TA1537; 150 µg/plate, without S9, methanol).
The revertant ratio of `Cc1cc(C(=O)NC(C)(C)COc2cccc3c2C(N)=NS(=O)(=O)N3)cc(C)n1` is reported as 0.9 (Ames test, confirmatory; TA100; 333 µg/plate, with: rat liver S9; reference: solvent control).

Excerpt of the above:
The survival of `O=[N+]([O-])c1ccc(NC2CCNCC2)c(C(F)(F)F)c1` is reported as 128% (SOS/umu test; TA1535/pSK1002; 0.001 mg/mL, 4 h, without S9 activation).
